Experimental data gathered from unrelated publications.
Parts stem from different laboratories: compare values within a part only. Substitutions count along the parent as printed.

Study 1
Target: CCNF, cyclin fold, Cln2 fusion (human)
Method: yeast growth competition, sequencing
Sample: yeast
Notes: strong parent motif
Baseline: not given
Reading: higher = stronger binding
Starting sequence: CDKN1B docking peptide (human); PSACRNLFGPVDH
Substitution | normalised enrichment score
P10V | 6.54
V11G | 6.62
C4D | -0.304
C4K | 7.28
V11T | 6.71
P10Y | 8.61
P1E | 5.13
F8C | -0.0717
P1G | 5.89
C4L | 2.06
H13E | 6.67
F8H | 0.509
P10D | 6.78
G9A | 3.97
P1W | 8.09
D12N | 6.65
F8A | -0.192

Study 2
Target: Histone acetyltransferase KAT6A, winged helix 1, GST fusion (KAT6A, Homo sapiens, UniProt Q92794, residues 1-85)
Method: protein binding microarray
Form: double-stranded DNA, one strand shown
Sample: in vitro
Concentration: not given
Notes: 8-mer, flanks averaged, mean of 2 arrays, mostly near background
Baseline: not given
Reading: higher = stronger binding
Residues (chain): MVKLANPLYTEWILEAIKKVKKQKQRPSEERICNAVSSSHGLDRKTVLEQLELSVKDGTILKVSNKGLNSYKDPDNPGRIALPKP
Strand | E-score
ACACCACG | -0.0728
ATGACTGG | -0.171
ATCCGCGG | 0.406
GCCTGAAC | -0.0325
GGGCCGAA | 0.111
AAGTTAAG | -0.18
CCTGGCTC | 0.00899
CAATGGAC | -0.12
AAACGGCT | 0.173
CCTCTGCC | -0.0729
GGACACAA | -0.18
CCCAGGCG | 0.00955
TACAGTCA | -0.143
GCATAAAC | 0.0641
GGCGAGGA | 0.103
CATTTAAC | -0.101
GACGGGGC | 0.282
GAAAGCAC | -0.292
GAGACCCC | 0.00805

Study 3
Target: Sox-I, HMG box (Salpingoeca helianthica)
Method: Spec-seq
Form: double-stranded DNA, one strand shown
Sample: in vitro
Concentration: not given
Notes: whole probe, mean of replicates
Baseline: not given
Reading: lower = stronger binding
Constant ends, left off below: GAGTCGTCTCGTCAGCAC … CCGTAGAGCACTCAGGTC
Target sequence (chain): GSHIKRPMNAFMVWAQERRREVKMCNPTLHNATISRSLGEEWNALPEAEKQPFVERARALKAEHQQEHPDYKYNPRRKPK
Strand | relative binding energy [ln ratio]
CATAGAG | 0.0922
CATCGAC | 0.825
CTTCGTT | 0.565
CATCACG | 0.721
GTAAGTT | 0.637
GGGGGTT | 1.18
TTTCGTT | 0.662
CATTGCA | 0.84
CATTGCT | 0.468

Other studies, line by line
Substance | target | test | test system | setting | how to read | measurement | result
PhoQ, residues 284 288 289 292 302 303 NLCILV | PhoP, residues 12 14 15 18 19 LQHIR (Escherichia coli, UniProt P23836) | Sort-seq, measured: YFP reporter | E. coli | PhoQ-PhoP variant library, together with: 10 µM Mg2+ | baseline: high Mg2+ state, higher = stronger signaling | fold induction | 20.9

A few entries again (study 3):
Strand | relative binding energy [ln ratio]
GTAAGTT | 0.637
CATCACG | 0.721
CATAGAG | 0.0922
CTTCGTT | 0.565
TTTCGTT | 0.662
CATTGCA | 0.84
GGGGGTT | 1.18
